Measurements collected from several papers.
Compare with care: the assays were run in different laboratories. ± gives the spread as reported. In brackets after ≈: the same amount, converted by molar mass.

`CC(C)(C)NCC(SS(=O)(=O)O)c1ccccc1` (centres unmarked) — result for “female worm burden reduction”: 89% (Schistosoma mansoni; infected mice; 200 mg/kg single, day 42, perfusion day 56; reference: vehicle).
For `CN1CCCNC(=O)c2cccc(c2)C(=O)NCCCN(C)CCCNc2cccc3c2C(=O)c2cccc(c2C3=O)NCCC1`, “log2 fold change” read -2.74 (SAS; RNA-Seq, measured: NFKB1 mRNA; 1 µM, 6 h; reference: untreated cells).
Under “log2 fold change”, `Cc1ncsc1-c1ccc(C(C)NC(=O)C2CC(O)CN2C(=O)C(NC(=O)CCCCCCCCCCN2CCCC(Nc3ncc(Cl)c(Nc4ccccc4S(=O)(=O)C(C)C)n3)C2)C(C)(C)C)cc1` (centres unmarked) is recorded as -1.12 (22Rv1; RNA-seq, measured: METAP1D mRNA; concentration not given; reference: DMSO).
`C=C(NC(=O)c1csc(-c2nc3c(cc2O)-c2nc(cs2)C(=O)NC(C(C)O)C(=O)NC(=C(C)OC)c2nc(cs2)C(=O)NC2c4nc(cs4)C(=O)NC(COC(=O)c4c5c6c(cccc6n4O)COC(=O)C(OC4CC(C)(O)C(N(C)C)C(C)O4)C2OC5)c2nc-3cs2)n1)C(N)=O` (centres unmarked) gave a post-antibiotic effect of 0.49 ± 0.1 h (Staphylococcus aureus; ATCC 43300 MRSA; 1 x MIC, 1 h exposure).
With `C=CC(=O)N1[C@@H](c2ccc3c(c2)OCO3)c2[nH]c3ccccc3c2C[C@H]1C(=O)N1CCN(C)CC1` the relative co-enrichment was 144% (human cyclin E1 N112C-3xFLAG:CDK2; co-IP with TMT proteomics, measured: THRAP3; concentration not given, Q9Y2W1; reference: wild type DMSO).
For `C=CC(=O)Nc1cccc(Cn2ncc3cnc(Nc4cnn(CCOC)c4)nc32)c1`, “percent of control” read 95% (IRAK4 human; binding, KINOMEscan; 100 nM; lower = stronger binding).
`N=C(N)NCCC[C@@H]1NC(=O)[C@H](CCCNC(=N)N)NC(=O)[C@@H](C(c2ccccc2)c2ccccc2)NC(=O)[C@H](Cc2c[nH]c3ccccc23)NC(=O)[C@@H](C(c2ccccc2)c2ccccc2)NC(=O)[C@@H](CCCNC(=N)N)NC(=O)[C@@H](CCCNC(=N)N)NC1=O` has an MIC of 32 µg/mL (≈ 25.4 µM) (Candida albicans; CA3).
For `Cn1ncc2cc(-c3cncc(Cl)c3N3CCC4(CCNC4=O)CC3)ccc21`, “log2 fold change” read 2.22 (LS174T; gene expression, microarray, measured: LRRC19 mRNA; concentration not given, 24 h; reference: untreated cells).
With `CN1CCC[C@]1(C)/C=C/S(=O)(=O)NC(=O)Nc1c2c(cc3c1CCC3)CCC2` the IL-18 inhibition was 95.8% (human, whole blood ex vivo; 25 mg single dose, 3 h, single ascending dose, together with: LPS and ATP).
The IC50 of `CNS(=O)(=O)Nc1nccc(Cc2c(C)c3ccc(Oc4ncccc4F)cc3oc2=O)c1F` is reported as 3.05 nM (OCI-Ly10; cell viability; 7 days).
For `Nc1ncc(-c2cc(-c3cnn(CC(F)(F)F)c3)ncc2F)nc1C(=O)NC1CNCC(F)C1` (centres unmarked), the remaining binding was 89% (PRKCQ; KINOMEscan; 1 µM; reference: DMSO control).
`COC1CN([C@H]2CC[C@H]([C@@]3(C)Oc4c(Cl)cc(C(=O)NCc5c(SC)cc(C)[nH]c5=O)c(C)c4O3)CC2)C1` — result for “log2 fold change”: 2.2 (RNA-seq, measured: SULT1A2; human, whole blood; dose not given, 24 h; reference: pretreatment baseline).
`CCN(CC)CC(=O)Nc1cccc(-n2cc(-c3ccc4ccc(-c5cn(-c6cccc(NC(=O)CN(CC)CC)c6)nn5)cc4c3)nn2)c1` has a fold regulation of -1.34 (RCC4; PCR angiogenesis array, measured: SERPINE1; 5 x IC50, 4 h, normoxia; reference: untreated).
For `CC(=O)[O-].O.O.[O-]c1ccc(Br)cc1C=NCCN1CCOCC1.[Zn+2]`, the inhibition was 17.2% (nitric oxide scavenging; 80 µM).

A few entries again:
`CCN(CC)CC(=O)Nc1cccc(-n2cc(-c3ccc4ccc(-c5cn(-c6cccc(NC(=O)CN(CC)CC)c6)nn5)cc4c3)nn2)c1` has a fold regulation of -1.34 (RCC4; PCR angiogenesis array, measured: SERPINE1; 5 x IC50, 4 h, normoxia; reference: untreated).
